Experimental data pooled from the literature.
Compare with care: the assays were run in different laboratories. Values joined by “and” are separate records of one study, mostly repeats; a detail may differ. ± marks the error that the study gave.
Adhesin FmlH lectin domain: Adhesin FmlH, lectin domain (Escherichia coli, UniProt Q1RBS0)
MAL12: Alpha-glucosidase MAL12 (MAL12, Saccharomyces cerevisiae S288c, UniProt P53341)
Sequence of UniProt P53341 (whole entry, looked up): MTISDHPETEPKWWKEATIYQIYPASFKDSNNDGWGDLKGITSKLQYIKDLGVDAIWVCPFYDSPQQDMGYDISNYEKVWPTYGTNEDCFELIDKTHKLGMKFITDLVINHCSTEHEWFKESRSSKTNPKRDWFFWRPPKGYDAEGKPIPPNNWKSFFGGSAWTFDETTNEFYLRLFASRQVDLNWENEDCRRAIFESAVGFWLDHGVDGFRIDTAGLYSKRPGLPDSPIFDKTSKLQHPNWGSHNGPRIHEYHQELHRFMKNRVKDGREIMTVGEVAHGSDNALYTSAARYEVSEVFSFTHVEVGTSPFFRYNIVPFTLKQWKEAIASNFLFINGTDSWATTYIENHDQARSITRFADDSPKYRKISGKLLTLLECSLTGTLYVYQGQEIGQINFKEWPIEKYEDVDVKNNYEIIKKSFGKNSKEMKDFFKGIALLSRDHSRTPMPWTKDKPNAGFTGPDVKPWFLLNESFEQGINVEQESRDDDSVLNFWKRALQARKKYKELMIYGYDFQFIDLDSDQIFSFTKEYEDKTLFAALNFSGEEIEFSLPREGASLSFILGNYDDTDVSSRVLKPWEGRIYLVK
PTGS1: Prostaglandin G/H synthase 1 (PTGS1, Ovis aries, UniProt P05979)
Sequence of UniProt P05979 (whole entry, looked up): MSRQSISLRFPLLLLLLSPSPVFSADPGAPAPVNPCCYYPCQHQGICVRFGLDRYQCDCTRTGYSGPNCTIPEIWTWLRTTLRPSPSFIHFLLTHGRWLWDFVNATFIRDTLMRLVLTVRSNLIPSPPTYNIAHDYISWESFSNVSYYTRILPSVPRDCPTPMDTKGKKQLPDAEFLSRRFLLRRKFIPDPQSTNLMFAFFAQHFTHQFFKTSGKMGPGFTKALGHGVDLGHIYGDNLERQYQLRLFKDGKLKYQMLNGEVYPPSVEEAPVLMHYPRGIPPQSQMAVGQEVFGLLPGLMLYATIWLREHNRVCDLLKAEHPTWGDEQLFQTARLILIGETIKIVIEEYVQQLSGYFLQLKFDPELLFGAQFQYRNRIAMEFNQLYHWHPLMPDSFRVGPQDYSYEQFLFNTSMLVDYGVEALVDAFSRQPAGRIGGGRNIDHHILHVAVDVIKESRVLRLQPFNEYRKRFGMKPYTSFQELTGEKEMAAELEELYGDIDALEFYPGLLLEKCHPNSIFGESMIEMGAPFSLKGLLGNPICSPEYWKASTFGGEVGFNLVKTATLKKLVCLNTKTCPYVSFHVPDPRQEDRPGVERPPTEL
CAPN1: Calpain-1 catalytic subunit (CAPN1, Homo sapiens, UniProt P07384)
Sequence of UniProt P07384 (whole entry, looked up): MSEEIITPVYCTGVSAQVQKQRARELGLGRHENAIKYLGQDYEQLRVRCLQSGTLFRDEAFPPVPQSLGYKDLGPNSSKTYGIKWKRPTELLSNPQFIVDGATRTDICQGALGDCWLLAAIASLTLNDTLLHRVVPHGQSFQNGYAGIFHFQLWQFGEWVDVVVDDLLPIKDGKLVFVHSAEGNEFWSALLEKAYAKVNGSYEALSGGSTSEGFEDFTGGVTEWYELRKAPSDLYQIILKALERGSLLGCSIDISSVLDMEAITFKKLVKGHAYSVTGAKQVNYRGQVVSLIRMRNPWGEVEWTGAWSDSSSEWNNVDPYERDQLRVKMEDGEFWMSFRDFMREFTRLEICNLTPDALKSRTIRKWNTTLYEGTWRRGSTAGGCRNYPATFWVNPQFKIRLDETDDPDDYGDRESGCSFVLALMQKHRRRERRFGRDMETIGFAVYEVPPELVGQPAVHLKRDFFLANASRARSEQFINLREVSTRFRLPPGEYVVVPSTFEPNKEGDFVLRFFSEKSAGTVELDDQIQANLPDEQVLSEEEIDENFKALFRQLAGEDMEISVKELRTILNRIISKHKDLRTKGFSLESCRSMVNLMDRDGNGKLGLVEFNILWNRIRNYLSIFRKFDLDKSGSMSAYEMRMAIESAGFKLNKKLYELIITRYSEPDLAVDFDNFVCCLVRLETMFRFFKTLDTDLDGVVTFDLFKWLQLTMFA
STING1 H232R: Stimulator of interferon genes protein (STING1, Homo sapiens, UniProt Q86WV6, H232R)
Sequence of UniProt Q86WV6 (whole entry, unmodified, looked up): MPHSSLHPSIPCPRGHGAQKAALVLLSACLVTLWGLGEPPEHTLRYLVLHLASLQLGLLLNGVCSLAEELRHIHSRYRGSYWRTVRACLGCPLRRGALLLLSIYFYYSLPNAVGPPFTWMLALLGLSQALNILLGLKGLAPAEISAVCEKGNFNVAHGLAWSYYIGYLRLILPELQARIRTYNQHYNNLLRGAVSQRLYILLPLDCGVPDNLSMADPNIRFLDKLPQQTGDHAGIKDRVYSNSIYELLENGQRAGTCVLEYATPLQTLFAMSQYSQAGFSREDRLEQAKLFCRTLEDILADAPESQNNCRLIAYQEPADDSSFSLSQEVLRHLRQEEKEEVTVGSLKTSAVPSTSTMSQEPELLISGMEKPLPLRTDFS
HTR1A: 5-hydroxytryptamine receptor 1A (HTR1A, Homo sapiens, UniProt P08908)
Sequence of UniProt P08908 (whole entry, looked up): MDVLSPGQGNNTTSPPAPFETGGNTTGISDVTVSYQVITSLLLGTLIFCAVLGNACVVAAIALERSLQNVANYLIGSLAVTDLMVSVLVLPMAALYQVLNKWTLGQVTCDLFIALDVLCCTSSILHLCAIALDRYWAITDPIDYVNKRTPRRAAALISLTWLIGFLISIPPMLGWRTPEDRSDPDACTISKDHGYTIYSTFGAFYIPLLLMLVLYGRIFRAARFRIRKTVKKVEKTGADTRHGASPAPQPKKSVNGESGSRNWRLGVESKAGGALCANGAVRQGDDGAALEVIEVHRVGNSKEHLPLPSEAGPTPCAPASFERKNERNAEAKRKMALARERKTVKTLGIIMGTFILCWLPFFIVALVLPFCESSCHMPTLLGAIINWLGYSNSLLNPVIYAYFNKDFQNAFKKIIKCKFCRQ
USP51: Ubiquitin carboxyl-terminal hydrolase 51 (USP51, Homo sapiens, UniProt Q70EK9)
Sequence of UniProt Q70EK9 (whole entry, looked up): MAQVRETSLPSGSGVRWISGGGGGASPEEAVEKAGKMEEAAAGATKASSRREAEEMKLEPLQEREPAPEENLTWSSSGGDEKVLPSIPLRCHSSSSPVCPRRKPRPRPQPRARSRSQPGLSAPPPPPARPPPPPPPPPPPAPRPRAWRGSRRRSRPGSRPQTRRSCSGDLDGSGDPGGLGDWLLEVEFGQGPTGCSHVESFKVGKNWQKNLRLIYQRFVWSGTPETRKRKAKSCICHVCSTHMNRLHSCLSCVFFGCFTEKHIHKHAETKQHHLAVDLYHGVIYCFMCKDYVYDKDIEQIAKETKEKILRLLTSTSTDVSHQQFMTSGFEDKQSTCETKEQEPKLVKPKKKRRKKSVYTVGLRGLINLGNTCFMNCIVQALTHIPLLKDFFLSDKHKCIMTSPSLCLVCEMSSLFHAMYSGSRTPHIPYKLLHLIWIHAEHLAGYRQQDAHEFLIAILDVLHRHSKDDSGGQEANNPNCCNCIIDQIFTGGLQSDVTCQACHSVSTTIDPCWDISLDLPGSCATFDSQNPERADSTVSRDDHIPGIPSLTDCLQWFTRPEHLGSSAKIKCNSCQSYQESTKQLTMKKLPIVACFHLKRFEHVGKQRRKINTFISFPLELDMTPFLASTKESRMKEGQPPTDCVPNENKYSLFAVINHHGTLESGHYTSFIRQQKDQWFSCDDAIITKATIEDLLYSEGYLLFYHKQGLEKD
Sequence of UniProt Q13148 (whole entry, looked up): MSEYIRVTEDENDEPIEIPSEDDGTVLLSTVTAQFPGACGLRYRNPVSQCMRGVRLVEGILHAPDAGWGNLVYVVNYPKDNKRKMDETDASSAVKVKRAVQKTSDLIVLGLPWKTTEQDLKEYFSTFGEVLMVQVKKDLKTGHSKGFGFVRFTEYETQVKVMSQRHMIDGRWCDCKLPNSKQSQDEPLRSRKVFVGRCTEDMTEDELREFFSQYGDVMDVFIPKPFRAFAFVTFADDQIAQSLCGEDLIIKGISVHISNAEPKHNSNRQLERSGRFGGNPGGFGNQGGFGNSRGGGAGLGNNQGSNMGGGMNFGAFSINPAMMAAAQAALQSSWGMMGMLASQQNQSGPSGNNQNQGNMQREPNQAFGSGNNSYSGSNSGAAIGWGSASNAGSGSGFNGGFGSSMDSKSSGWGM
Sequence of UniProt Q53GL7 (whole entry, looked up): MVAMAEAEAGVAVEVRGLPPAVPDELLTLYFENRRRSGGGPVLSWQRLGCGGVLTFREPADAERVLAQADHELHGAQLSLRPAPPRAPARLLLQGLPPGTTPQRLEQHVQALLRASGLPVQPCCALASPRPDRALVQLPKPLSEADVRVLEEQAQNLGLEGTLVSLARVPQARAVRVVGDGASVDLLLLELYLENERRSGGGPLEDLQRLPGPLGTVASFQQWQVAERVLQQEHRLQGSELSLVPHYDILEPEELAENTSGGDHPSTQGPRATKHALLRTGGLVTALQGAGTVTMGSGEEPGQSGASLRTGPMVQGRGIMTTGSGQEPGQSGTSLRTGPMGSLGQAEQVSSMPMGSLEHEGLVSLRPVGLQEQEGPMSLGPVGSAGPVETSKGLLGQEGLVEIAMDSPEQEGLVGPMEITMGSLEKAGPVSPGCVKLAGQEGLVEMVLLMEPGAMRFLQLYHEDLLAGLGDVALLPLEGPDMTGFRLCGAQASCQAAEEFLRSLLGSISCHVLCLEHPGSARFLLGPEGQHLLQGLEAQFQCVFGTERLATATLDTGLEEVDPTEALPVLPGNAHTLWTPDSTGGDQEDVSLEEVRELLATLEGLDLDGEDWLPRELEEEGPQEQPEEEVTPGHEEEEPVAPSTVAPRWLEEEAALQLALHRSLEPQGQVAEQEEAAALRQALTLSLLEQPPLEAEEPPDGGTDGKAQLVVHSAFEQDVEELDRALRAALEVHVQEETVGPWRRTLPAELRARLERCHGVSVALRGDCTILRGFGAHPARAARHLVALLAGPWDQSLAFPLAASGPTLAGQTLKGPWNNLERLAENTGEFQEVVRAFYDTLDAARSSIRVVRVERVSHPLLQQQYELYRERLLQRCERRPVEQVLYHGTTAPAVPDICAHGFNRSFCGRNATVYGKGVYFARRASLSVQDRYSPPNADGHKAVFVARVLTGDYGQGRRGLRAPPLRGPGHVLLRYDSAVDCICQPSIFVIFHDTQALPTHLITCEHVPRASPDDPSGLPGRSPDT

`CNS(=O)(=O)Nc1nccc(Cc2c(C)c3ccc(Oc4ncccc4F)cc3oc2=O)c1F` gave an IC50 of 0.508 µM (G-401; cell viability; 7 days).
The CC50 of `Nc1nc(-c2ccc(Cl)cc2)nc2[nH]nc(Nc3ccc(F)cc3)c12` is reported as over 141 µM (HeLa Ohio; 72 h).
`COc1ccccc1O[C@@H]1O[C@H](CO)[C@H](O)[C@H](O)[C@H]1O` gave an inhibition of 97.2 ± 0.4% (Adhesin FmlH lectin domain; binding to desialylated mucin, ELISA competition; UPEC UTI89; 100 µM).
For `CCOCc1ccc(O[C@@H]2O[C@@H](C)[C@H](O)[C@@H](O)[C@H]2O)cc1`, the inhibition was 39.8 ± 4.61% (MAL12; inhibitor; 100 µg/mL, 0.4167 h, together with: p-nitrophenyl glucoside substrate).
For `O=C1c2sc(-c3ccc(N4CCC(CO)CC4)nc3F)nc2CCN1c1cccnc1`, the inhibition was 8% (Glucagon receptor (GCGR, Homo sapiens, UniProt P47871); ligand displacement, radioligand; 1 µM).
`Cc1ccc(-c2nn(-c3ccc(S(C)(=O)=O)cc3)cc2C=NN=c2[nH]c(-c3ccc([N+](=O)[O-])cc3)cs2)cc1` has an inhibition of 60.3% (PTGS1; enzyme activity; 10 µM).
The inhibition of `O=C(CN1CCO[C@@H](COc2cccc(Cl)c2)C1)N1CCc2ccccc21` is reported as 28.9% (5-hydroxytryptamine receptor 5A (HTR5A, Homo sapiens, UniProt P47898); radioligand binding; concentration not given, together with: [3H]LSD).
For `CC(C)(C)CNC(=O)C[C@H](NC(=O)CCc1ccccc1)C(=O)N[C@@H](Cc1cccnc1)C(=O)NCc1ccccc1Cl`, the inhibition was 50% (CAPN1; enzyme activity, inhibitor; 100 µM).
`O=C(N[C@@H](CCCCNC(=O)c1ccc([N+](=O)[O-])o1)c1nc2ccccc2[nH]1)c1ccc(-n2ccnc2)cc1` gave an EC50 of 22.1 µM (STING1 H232R; reporter gene, inhibitor; THP1-Dual KI-hSTING-R232; 24 h, 1 h preincubation, together with: diABZI 500 nM).
`C[Si](C)(C)C[C@H](CN)CC(=O)O` has an inhibition of 3% (HTR1A; ligand displacement, radioligand; 250 µM).
With `CS(=O)(=O)c1ccc(-n2cc(C=NN=c3[nH]c(-c4ccc(Br)cc4)cs3)c(-c3ccc(Br)cc3)n2)cc1` the inhibition was 75.9% (PTGS1; enzyme activity; 10 µM).
For `COc1cc(OC)cc(O[C@@H]2O[C@H](CO)[C@H](O)[C@H](O)[C@H]2O)c1`, the inhibition was 76.4 ± 2.4% (Adhesin FmlH lectin domain; binding to desialylated mucin, ELISA competition; UPEC UTI89; 100 µM).
For `COCC(=O)N1CCc2cc(-c3csc(NC(=O)c4cc(OC)cc(OC)c4)n3)ccc21`, the inhibition was -7% (B1 bradykinin receptor (BDKRB1, Homo sapiens, UniProt P46663); cell-free assay; 10 µM).
`NC(=O)c1ccccc1NC(=O)CSc1ncnc2nc(N3CCCCCC3)sc12` has an inhibition of 14.1 ± 5.2% (USP51; enzyme activity, inhibitor; 1 µM).
With `Oc1cc2c(cc1O)C(c1cccc3[nH]ccc13)NCC2` (stereo not shown) the inhibition was 77 ± 3.38% (MAL12; enzyme activity, inhibitor; 100 µM, DMSO solvent, together with: pNPG substrate).
`COc1ncc2nc(C)n(Cc3ncc(S(N)(=O)=O)cc3F)c2c1-c1ccccc1` has an inhibition of -15.5% (Histamine H2 receptor (HRH2, Homo sapiens, UniProt P25021); antagonist, cell-based; 10 µM).
For `CC(C)Cn1c(SCC(=O)N2CCc3ccccc3C2)nc2cc(Cl)ccc2c1=O`, the inhibition was -9% (HTR1A; ligand displacement, radioligand; 10 µM).
For `O=C(N[C@@H](CCNC(=O)c1ccc([N+](=O)[O-])o1)c1nc2ccccc2[nH]1)c1ccc(-n2cccn2)cc1`, the EC50 was 15.7 µM (STING1 H232R; reporter gene, inhibitor; THP1-Dual KI-hSTING-R232; 24 h, 1 h preincubation, together with: diABZI 500 nM).
With `COc1ccc(OC)c(NC(=O)c2ccc(OC)nc2OC)c1` the inhibition was 10 ± 2% (USP51; enzyme activity, inhibitor; 1 µM).
The inhibition of `COc1cc(Nc2ccn3ncc(-c4cccc(Cl)c4)c3n2)cc(OC)c1OC` is reported as 25% (crk3, with CYC6 (Leishmania mexicana, UniProt O15851); IMAP fluorescence polarisation; 30 µM, with L. major CYC6).
`Cc1ccccc1O[C@@H]1O[C@H](CO)[C@H](O)[C@H](O)[C@H]1O` gave an inhibition of 1.8 ± 5.7% (Adhesin FmlH lectin domain; binding to desialylated bovine submaxillary mucin, inhibitor, ELISA competition; UPEC UTI89; 1 µM).
`C/C=C/C(=O)Nc1ccc2nc(NCCCCCN(C)C)nc(NCCCCCCN(C)C)c2c1` gave an inhibition of 72% (Histone-lysine N-methyltransferase EZH2 (EZH2, Homo sapiens, UniProt Q15910); enzyme activity, inhibitor, radiometric; 50 µM).
`O=C1CO[C@H](CNC(=O)C2(c3ccc(Cl)cc3)CC2)CN1C1Cc2ccccc2C1` has an inhibition of 13% (C-X-C chemokine receptor type 6 (CXCR6, Homo sapiens, UniProt O00574); β-arrestin recruitment, antagonist; 1 µM).
With `CN(Cc1ccc(/C=C/C(=O)NO)cc1)CC12CC3CC(CC(C3)C1)C2` the inhibition was 0% (human EP2 receptor; agonist radioligand binding; 0.05 µM).
`CCCc1noc(-c2ccc(-n3cnc(C(=O)NC4CC4)c3)nc2)n1` has an inhibition of 20.2 ± 4.1% (USP51; enzyme activity, inhibitor; 1 µM).
For `CS(=O)(=O)c1ccc(-n2cc(C=NN=c3[nH]c(-c4ccc(Br)cc4)cs3)c(-c3ccc([N+](=O)[O-])cc3)n2)cc1` (mixture of isomers), the inhibition was 1.93% (PTGS1; enzyme activity; 0.01 µM).
`CN(C)C/C=C/C(=O)Nc1ccc2nc(NCCCCCN(C)C)nc(NCCCCCCN(C)C)c2c1` has an inhibition of 97% (Histone-lysine N-methyltransferase SETD2 (SETD2, Homo sapiens, UniProt Q9BYW2); enzyme activity, inhibitor, radiometric; 50 µM).
`Cc1ncsc1-c1ccc(C(C)NC(=O)C2CC(O)CN2C(=O)C(NC(=O)CCCCCCCCCCN2CCCC(Nc3ncc(Cl)c(Nc4ccccc4S(=O)(=O)C(C)C)n3)C2)C(C)(C)C)cc1` (stereo not shown): “log2 fold change” -1.46 (22Rv1; RNA-seq, measured: SALL2 mRNA; concentration not given; reference: DMSO).
`Cc1ccccc1CC(=O)N1CCCC1c1nnc(C(=O)Nc2ccc3c(c2)OCO3)s1` (stereo not shown) gave an inhibition of 2.6 ± 0.6% (USP51; enzyme activity, inhibitor; 1 µM).
With `Cc1nn(-c2cccc(N)c2)c(=O)c2cnc(Nc3ccc(N4CCNCC4)cc3)nc12` the IC50 was 0.928 µM (Serine/threonine-protein kinase Sgk1 (SGK1, Homo sapiens, UniProt O00141); kinase activity, inhibitor, SelectScreen kinase profiling).
`CN1CC[C@@H](COc2cnc(C#N)cc2-c2ccn3nc(NC(=O)C4CC4)cc3c2)C1` has an inhibition of -8% (Serine-protein kinase ATM (ATM, Homo sapiens, UniProt Q13315); enzyme activity, inhibitor; 1 µM).
`OC[C@H]1O[C@@H](SCCc2ccccc2)[C@H](O)[C@@H](O)[C@H]1O` has an inhibition of 2.3 ± 2.5% (Adhesin FmlH lectin domain; binding to desialylated mucin, ELISA competition; UPEC UTI89; 10 µM, together with: desialylated bovine submaxillary mucin).
`COC1CN([C@H]2CC[C@H]([C@@]3(C)Oc4c(Cl)cc(C(=O)NCc5c(SC)cc(C)[nH]c5=O)c(C)c4O3)CC2)C1` — result for “log2 fold change”: 0.645 (RNA-seq, measured: HEMGN mouse homolog; mouse, HT-1376 xenograft, whole blood; dose not given; reference: vehicle).
With `COc1ccc(NC(=O)c2nnn3cc(C)[nH]c(=O)c23)cc1OC` the inhibition was 48.5 ± 16.6% (USP51; enzyme activity, inhibitor; 1 µM).
For `OC[C@H]1O[C@@H](Oc2cccc3ccccc23)[C@H](O)[C@@H](O)[C@H]1O`, the inhibition was 45.9 ± 3.7% (Adhesin FmlH lectin domain; binding to desialylated mucin, ELISA competition; UPEC UTI89; 100 µM).
`NC(=O)C[C@H]1CCc2sc3ncnc(O[C@H]4CC[C@H](N5CCOCC5)CC4)c3c21` gave an inhibition of 5% (Serine/threonine-protein kinase VRK1 (VRK1, Homo sapiens, UniProt Q99986); enzyme activity, inhibitor; 10 µM).
`N#Cc1ccc(O[C@@H]2O[C@H](CO)[C@H](O)[C@H](O)[C@H]2O)cc1` has an inhibition of 85.7 ± 1.6% (Adhesin FmlH lectin domain; binding to desialylated mucin, ELISA competition; UPEC UTI89; 100 µM).
With `Nc1nc(-c2ccc(OC(F)(F)F)cc2)nc2[nH]nc(Nc3ccccc3)c12` the CC50 was over 518 µM (HeLa Ohio; 72 h).
For `COc1cc(-n2cc3cc(F)cc(C(N)=O)c3n2)cc(Cl)c1C1CC(O)(CCO)Cc2ccccc21` (stereo not shown), the inhibition was 0.96% (Protein mono-ADP-ribosyltransferase PARP10 (PARP10, Homo sapiens, UniProt Q53GL7); enzyme activity, inhibitor; 10 µM).
The inhibition of `Cc1ccc(CNC(=O)[C@H](CCc2ccccc2)NC(=O)[C@H](CCc2ccccc2)NC(=O)Cc2cccc(Oc3ccccc3)c2)cc1` is reported as 17% (CAPN1; enzyme activity, inhibitor; 100 µM).
For `C/C1=C\CC/C(C)=C/CC(C)(C)/C=C/C1`, the inhibition was 42 ± 2% (Transient receptor potential cation channel subfamily V member 1 (Trpv1, Rattus norvegicus, UniProt O35433); ion current, inhibitor, outside-out patch clamp; 10 µM, together with: pH 5.5 activation).
With `O=C1c2sc(-c3ccc(N4CCC(F)C4)nc3F)nc2CCN1c1cccnc1` (stereo not shown) the inhibition was 66.2% and 69% (TAR DNA-binding protein 43, aggregated (TARDBP, Homo sapiens, UniProt Q13148); radioligand binding; homogenate, FTLD-TDP, type A; 250 nM, together with: [3H]ACI-19626).
`COc1ccc(C[C@H](NC(=O)Cc2cccc(Oc3ccccc3)c2)C(=O)N[C@@H](Cc2c[nH]c3ccccc23)C(=O)NCc2ccc(C)cc2)cc1OC` has an inhibition of -12% (CAPN1; enzyme activity, inhibitor; 100 µM).
`C[C@@H]1CN(Cc2ccccc2)[C@H]2C[C@@H]1CC(=O)[C@@H]2C` has an inhibition of 47% (Mu-type opioid receptor (Cavia porcellus, UniProt A0ACM8Q262); binding, radioligand binding; guinea pig brain membranes; 1 µM, together with: [3H]DAMGO).
The inhibition of `Cc1ccc(NC(=O)c2cn(CC(O)c3ccc4c(c3)OCO4)nn2)cc1` (stereo not shown) is reported as 38.9 ± 6.1% (USP51; enzyme activity, inhibitor; 1 µM).
`Cc1ccc(-c2nn(-c3ccc(S(C)(=O)=O)cc3)cc2C=NN=c2[nH]c(-c3ccc(Br)cc3)cs2)cc1` (mixture of isomers) gave an inhibition of 84.2% (PTGS1; enzyme activity; 100 µM).

A few entries again:
For `C/C1=C\CC/C(C)=C/CC(C)(C)/C=C/C1`, the inhibition was 42 ± 2% (Transient receptor potential cation channel subfamily V member 1 (Trpv1, Rattus norvegicus, UniProt O35433); ion current, inhibitor, outside-out patch clamp; 10 µM, together with: pH 5.5 activation).
With `O=C1c2sc(-c3ccc(N4CCC(F)C4)nc3F)nc2CCN1c1cccnc1` (stereo not shown) the inhibition was 66.2% and 69% (TAR DNA-binding protein 43, aggregated (TARDBP, Homo sapiens, UniProt Q13148); radioligand binding; homogenate, FTLD-TDP, type A; 250 nM, together with: [3H]ACI-19626).
`COc1ccc(C[C@H](NC(=O)Cc2cccc(Oc3ccccc3)c2)C(=O)N[C@@H](Cc2c[nH]c3ccccc23)C(=O)NCc2ccc(C)cc2)cc1OC` has an inhibition of -12% (CAPN1; enzyme activity, inhibitor; 100 µM).
